Published values gathered from unrelated publications.
Parts stem from different laboratories: compare values within a part only.
Sequence of UniProt P07332 (whole entry, looked up): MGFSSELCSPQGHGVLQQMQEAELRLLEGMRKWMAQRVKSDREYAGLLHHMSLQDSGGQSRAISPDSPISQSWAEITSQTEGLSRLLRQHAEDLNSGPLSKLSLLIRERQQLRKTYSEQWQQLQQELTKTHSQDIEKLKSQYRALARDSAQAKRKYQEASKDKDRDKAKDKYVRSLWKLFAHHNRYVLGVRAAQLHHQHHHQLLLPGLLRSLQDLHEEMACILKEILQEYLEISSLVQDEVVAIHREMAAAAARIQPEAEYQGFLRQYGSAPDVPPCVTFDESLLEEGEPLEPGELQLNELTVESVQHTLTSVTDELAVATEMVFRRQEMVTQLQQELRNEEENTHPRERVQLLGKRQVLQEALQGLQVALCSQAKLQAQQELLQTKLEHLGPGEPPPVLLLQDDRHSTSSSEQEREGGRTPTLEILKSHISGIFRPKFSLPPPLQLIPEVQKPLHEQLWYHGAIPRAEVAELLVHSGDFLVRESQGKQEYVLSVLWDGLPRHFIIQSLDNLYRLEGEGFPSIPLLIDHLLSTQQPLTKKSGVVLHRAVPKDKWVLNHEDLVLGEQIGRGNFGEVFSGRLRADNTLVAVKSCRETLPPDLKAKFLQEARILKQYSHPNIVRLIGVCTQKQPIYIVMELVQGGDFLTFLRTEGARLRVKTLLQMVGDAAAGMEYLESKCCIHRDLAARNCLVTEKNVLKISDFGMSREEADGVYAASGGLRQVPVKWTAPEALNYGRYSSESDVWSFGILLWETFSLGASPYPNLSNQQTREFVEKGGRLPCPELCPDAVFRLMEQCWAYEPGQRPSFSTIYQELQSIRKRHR
Sequence of UniProt Q00535 (whole entry, looked up): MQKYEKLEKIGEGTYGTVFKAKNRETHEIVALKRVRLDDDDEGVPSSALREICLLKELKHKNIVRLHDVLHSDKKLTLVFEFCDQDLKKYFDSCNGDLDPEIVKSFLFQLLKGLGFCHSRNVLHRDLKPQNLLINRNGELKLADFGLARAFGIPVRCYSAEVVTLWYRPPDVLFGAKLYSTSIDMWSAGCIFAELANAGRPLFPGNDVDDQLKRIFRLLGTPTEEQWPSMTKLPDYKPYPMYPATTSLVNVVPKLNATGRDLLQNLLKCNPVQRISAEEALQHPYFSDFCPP
Sequence of UniProt O96013 (whole entry, looked up): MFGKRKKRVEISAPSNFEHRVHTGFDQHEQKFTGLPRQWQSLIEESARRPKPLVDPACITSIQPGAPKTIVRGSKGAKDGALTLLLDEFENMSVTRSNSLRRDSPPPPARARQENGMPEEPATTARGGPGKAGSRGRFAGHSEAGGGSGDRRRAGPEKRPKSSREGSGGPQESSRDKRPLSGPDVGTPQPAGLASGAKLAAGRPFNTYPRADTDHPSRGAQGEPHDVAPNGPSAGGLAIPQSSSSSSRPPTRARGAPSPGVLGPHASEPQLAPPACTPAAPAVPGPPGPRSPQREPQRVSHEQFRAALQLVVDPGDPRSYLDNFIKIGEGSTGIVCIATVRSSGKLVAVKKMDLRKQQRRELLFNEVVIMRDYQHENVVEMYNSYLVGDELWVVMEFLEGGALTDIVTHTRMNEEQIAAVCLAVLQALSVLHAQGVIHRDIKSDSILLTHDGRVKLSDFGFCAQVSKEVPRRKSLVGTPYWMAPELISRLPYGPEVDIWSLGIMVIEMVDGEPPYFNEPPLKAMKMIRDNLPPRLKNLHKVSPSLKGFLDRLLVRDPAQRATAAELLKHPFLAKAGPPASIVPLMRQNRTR
Sequence of UniProt Q9UBS0 (whole entry, looked up): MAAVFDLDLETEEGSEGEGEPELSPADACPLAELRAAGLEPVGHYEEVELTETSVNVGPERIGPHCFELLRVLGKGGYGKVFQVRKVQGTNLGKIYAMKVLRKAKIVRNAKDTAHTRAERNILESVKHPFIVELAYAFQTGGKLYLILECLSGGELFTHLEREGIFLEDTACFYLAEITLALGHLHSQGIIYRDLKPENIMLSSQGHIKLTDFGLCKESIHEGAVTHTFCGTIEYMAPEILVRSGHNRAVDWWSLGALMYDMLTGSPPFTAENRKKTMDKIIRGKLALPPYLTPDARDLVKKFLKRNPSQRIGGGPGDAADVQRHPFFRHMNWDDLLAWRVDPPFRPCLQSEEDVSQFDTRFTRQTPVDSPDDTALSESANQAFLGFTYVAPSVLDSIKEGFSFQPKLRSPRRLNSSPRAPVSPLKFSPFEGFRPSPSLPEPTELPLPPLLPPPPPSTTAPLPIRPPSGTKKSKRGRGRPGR
Sequence of UniProt Q9P286 (whole entry, looked up): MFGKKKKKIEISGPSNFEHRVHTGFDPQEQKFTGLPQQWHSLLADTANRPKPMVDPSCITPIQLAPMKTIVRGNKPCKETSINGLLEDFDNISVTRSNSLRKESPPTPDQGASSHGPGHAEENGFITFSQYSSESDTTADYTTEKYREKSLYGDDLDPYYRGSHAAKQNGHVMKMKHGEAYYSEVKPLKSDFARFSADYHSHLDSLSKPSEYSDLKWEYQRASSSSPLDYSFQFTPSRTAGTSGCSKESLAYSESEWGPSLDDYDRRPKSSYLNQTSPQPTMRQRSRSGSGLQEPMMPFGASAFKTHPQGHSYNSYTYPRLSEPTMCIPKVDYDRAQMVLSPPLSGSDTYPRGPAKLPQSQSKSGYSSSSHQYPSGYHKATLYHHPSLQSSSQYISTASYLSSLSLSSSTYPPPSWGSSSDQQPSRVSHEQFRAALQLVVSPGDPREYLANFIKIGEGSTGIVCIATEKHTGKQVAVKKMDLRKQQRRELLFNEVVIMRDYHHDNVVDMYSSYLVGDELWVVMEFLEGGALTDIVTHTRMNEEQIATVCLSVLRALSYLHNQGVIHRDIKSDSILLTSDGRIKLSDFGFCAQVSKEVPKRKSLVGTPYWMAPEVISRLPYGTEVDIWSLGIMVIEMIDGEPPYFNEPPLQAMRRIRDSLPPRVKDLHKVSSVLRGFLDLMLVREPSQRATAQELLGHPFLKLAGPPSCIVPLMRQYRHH
Sequence of UniProt P07947 (whole entry, looked up): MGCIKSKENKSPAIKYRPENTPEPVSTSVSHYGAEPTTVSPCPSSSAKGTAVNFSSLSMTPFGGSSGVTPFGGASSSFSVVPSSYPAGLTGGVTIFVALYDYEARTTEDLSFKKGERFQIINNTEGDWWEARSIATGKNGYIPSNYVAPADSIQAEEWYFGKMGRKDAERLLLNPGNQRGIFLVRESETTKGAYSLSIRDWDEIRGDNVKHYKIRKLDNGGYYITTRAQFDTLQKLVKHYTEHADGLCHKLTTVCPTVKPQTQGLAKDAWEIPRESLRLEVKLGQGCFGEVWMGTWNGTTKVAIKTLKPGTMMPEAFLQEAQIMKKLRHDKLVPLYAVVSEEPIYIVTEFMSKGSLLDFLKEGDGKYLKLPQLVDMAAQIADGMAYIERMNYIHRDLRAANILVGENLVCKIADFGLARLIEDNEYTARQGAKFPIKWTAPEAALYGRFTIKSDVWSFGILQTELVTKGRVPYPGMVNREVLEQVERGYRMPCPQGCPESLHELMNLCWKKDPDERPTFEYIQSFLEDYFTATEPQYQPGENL
Sequence of UniProt Q8IWQ3 (whole entry, looked up): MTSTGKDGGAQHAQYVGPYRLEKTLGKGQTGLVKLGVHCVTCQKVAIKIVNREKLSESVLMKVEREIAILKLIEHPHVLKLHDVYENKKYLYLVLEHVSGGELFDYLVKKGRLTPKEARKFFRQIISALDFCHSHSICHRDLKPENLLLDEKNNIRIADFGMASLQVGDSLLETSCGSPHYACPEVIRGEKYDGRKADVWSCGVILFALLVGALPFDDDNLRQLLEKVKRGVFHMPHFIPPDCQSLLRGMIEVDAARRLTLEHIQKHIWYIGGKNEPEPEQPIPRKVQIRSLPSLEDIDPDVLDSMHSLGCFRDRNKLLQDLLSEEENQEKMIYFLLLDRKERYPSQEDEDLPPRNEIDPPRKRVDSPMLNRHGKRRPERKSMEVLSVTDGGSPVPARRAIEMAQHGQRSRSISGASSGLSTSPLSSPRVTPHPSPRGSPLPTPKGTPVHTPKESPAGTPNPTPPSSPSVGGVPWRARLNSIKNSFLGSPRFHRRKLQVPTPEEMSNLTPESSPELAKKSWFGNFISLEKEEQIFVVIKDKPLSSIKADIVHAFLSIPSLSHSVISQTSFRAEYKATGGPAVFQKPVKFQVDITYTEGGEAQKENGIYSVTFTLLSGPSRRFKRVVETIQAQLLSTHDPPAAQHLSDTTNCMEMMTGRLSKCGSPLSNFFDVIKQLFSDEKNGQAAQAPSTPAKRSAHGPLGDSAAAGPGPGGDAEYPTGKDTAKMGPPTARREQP
Sequence of UniProt Q14680 (whole entry, looked up): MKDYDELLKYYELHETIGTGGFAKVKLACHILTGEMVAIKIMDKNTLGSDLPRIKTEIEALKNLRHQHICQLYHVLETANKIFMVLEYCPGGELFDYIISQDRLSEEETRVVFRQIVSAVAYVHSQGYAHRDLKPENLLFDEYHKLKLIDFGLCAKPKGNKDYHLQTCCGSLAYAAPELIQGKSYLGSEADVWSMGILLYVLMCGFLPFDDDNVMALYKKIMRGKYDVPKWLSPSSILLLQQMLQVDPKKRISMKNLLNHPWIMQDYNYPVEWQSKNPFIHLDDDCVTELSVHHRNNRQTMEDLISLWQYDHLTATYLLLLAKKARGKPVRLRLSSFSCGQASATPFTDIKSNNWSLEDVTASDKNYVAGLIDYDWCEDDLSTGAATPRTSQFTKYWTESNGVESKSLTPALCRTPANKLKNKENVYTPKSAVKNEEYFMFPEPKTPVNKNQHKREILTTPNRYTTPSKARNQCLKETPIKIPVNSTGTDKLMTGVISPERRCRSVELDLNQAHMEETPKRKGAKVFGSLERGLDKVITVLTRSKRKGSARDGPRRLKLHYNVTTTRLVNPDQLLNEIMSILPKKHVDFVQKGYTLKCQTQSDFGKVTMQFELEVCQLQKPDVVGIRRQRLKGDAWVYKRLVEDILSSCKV

Study 1
Structure (SMILES): CNC(=O)c1ccc(-c2cnn3ccc(C(=O)N(C)c4ccc(Cl)c(C(=O)OC)c4)cc23)cc1
Sample: plasma
Route: oral
Measurement: AUC
bovine; 20 mg/kg/day: 70.5 ng·h/mL
Wistar rat, both sexes; 50 mg/kg/day, 2 weeks, GLP toxicology study: 2.77 ng·h/mL
beagle dog; 15 mg/kg/day, multiple doses: 67.8 ng·h/mL
Wistar rat, both sexes; 250 mg/kg/day, 2 weeks, GLP toxicology study: 10.3 ng·h/mL
beagle dog; 250 mg/kg/day, multiple doses: 248 ng·h/mL

Study 2
Organism: Sarcocystis neurona
Read-out: parasite growth
Tested at: 10 µM
Measurement: inhibition
CNC1=Nc2ccc(Cl)cc2C(c2ccccc2)=[N+]([O-])C1: -20.1%
CCCCC/C=C\C/C=C\C/C=C\C/C=C\CCCC(=O)Nc1ccc(O)cc1: 4.5%
c1ccc2c3c([nH]c2c1)CNCC3: -28.7%
CC(C)CC(N(C)C)C1(c2ccc(Cl)cc2)CCC1.Cl (centres unmarked): -20.6%
O=C1CC[C@@]2(O)[C@H]3Cc4ccc(O)c5c4[C@@]2(CCN3CC2CC2)[C@H]1O5: -33.7%
CN1CC[C@@]23CCCC[C@@H]2[C@@H]1Cc1ccc(O)cc13.O=C(O)C(O)C(O)C(=O)O: -24.6%
CC(C)N(CCC(C(N)=O)(c1ccccc1)c1ccccn1)C(C)C (centres unmarked): -26.5%
Oc1ccc2c3c1O[C@H]1[C@@H](O)CC[C@@]4(O)[C@@H](C2)N(CC2CCC2)CC[C@]314: -20.3%

Study 3
Cell line: HEK-293T
Read-out: pseudovirus infection
Technique: FDA-approved drug library counter-screen
Organism: VSV pseudotyped with VSV-G
Tested at: 10 µM
Time: 16 h
Relative to: vehicle-treated
Measurement: GFP-positive cells
Nc1nc2[nH]cc(CCc3ccc(C(=O)N[C@@H](CCC(=O)O)C(=O)O)cc3)c2c(=O)[nH]1: 103%
CN1CCN2c3ncccc3Cc3ccccc3C2C1 (centres unmarked): 105%
COc1ccc(C(=O)c2ccccc2)c(O)c1: 73.7%
CCCCOc1ccc(C(=O)CCN2CCCCC2)cc1: 91.1%
CCCCCCC(=O)O[C@H]1CC[C@H]2[C@@H]3CCC4=CC(=O)CC[C@]4(C)[C@H]3CC[C@]12C: 126%
CC(O)(P(=O)(O)O)P(=O)(O)O: 118%
CS(=O)(=O)OCCCCOS(C)(=O)=O: 79.7%
NC(=O)c1ncn([C@@H]2O[C@H](CO)[C@@H](O)[C@H]2O)n1: 74.7%
CCN(CC)C(=O)/C(C#N)=C/c1cc(O)c(O)c([N+](=O)[O-])c1: 94.5%
Cc1ccc(-c2cc(C(F)(F)F)nn2-c2ccc(S(N)(=O)=O)cc2)cc1: 116%
COc1cc([C@@H]2c3cc4c(cc3[C@@H](O[C@@H]3O[C@@H]5CO[C@@H](C)O[C@H]5[C@H](O)[C@H]3O)[C@H]3COC(=O)[C@H]23)OCO4)cc(OC)c1O: 89.6%
CC1Cc2ccccc2N1NC(=O)c1ccc(Cl)c(S(N)(=O)=O)c1 (centres unmarked): 96.1%
CC1COc2c(N3CCN(C)CC3)c(F)cc3c(=O)c(C(=O)O)cn1c23 (centres unmarked): 95.8%
Oc1ccc(OCc2ccccc2)cc1: 69.9%
CCCc1nn(C)c2c(=O)[nH]c(-c3cc(S(=O)(=O)N4CCN(C)CC4)ccc3OCC)nc12: 103%
Cc1cnc(NC(=O)C2=C(O)c3ccccc3S(=O)(=O)N2C)s1: 91.3%
C#C[C@]1(O)CC[C@H]2[C@@H]3CCC4=C(CCC(=O)C4)[C@H]3CC[C@@]21C: 97.7%
Cc1cn([C@H]2C=C[C@@H](CO)O2)c(=O)[nH]c1=O: 97%
CC(=O)S[C@@H]1CC2=CC(=O)CC[C@]2(C)[C@H]2CC[C@@]3(C)[C@@H](CC[C@@]34CCC(=O)O4)[C@H]12: 98%
CC(=O)[C@H]1CC[C@H]2[C@@H]3CCC4=CC(=O)CC[C@]4(C)[C@H]3CC[C@]12C: 99.6%
COc1cc(Nc2c(C#N)cnc3cc(OCCCN4CCN(C)CC4)c(OC)cc23)c(Cl)cc1Cl: 147%
CNC1(C)C2CCC(C2)C1(C)C (centres unmarked): 101%
CC1(C)S[C@@H]2[C@H](NC(=O)Cc3ccccc3)C(=O)N2[C@H]1C(=O)O: 80.5%
CC(=O)O[C@H]1CC[C@@]2(C)C(=CC[C@@H]3[C@@H]2CC[C@]2(C)C(c4cccnc4)=CC[C@@H]32)C1: 141%
N[C@@H](Cc1ccc(N(CCCl)CCCl)cc1)C(=O)O: 87%

Study 4
Compound: COC[C@H]1OC(=O)c2coc3c2[C@@]1(C)C1=C(C3=O)[C@@H]2CCC(=O)[C@@]2(C)C[C@H]1OC(C)=O
Read-out: enzyme activity
Action: inhibitor
Tested at: 0.5 µM
Relative to: control
Measurement: remaining activity
Serine/threonine-protein kinase PAK 4 (PAK4, Homo sapiens, UniProt O96013): 91%
Serine/threonine-protein kinase MARK1 (MARK1, Homo sapiens, UniProt Q9P0L2): 98.1%
Serine/threonine-protein kinase PAK 5 (PAK5, Homo sapiens, UniProt Q9P286): 95.8%
Tyrosine-protein kinase Yes (YES1, Homo sapiens, UniProt P07947): 98.3%
Tyrosine-protein kinase JAK2 (JAK2, Homo sapiens, UniProt O60674): 102%
Maternal embryonic leucine zipper kinase (MELK, Homo sapiens, UniProt Q14680): 92.4%
Activin receptor type-1-like (ACVRL1, Homo sapiens, UniProt P37023): 98.8%
Dual specificity tyrosine-phosphorylation-regulated kinase 1A (DYRK1A, Homo sapiens, UniProt Q13627): 97.3%
Cyclin-dependent kinase 5, with p35 (CDK5, Homo sapiens, UniProt Q00535): 88.7%
Receptor tyrosine-protein kinase erbB-2 (ERBB2, Homo sapiens, UniProt P04626): 94.5%
Ephrin type-B receptor 3 (EPHB3, Homo sapiens, UniProt P54753): 96.8%
Serine/threonine-protein kinase BRSK2 (BRSK2, Homo sapiens, UniProt Q8IWQ3): 95.3%
Ribosomal protein S6 kinase beta-2 (RPS6KB2, Homo sapiens, UniProt Q9UBS0): 100%
Tyrosine-protein kinase Fes/Fps (FES, Homo sapiens, UniProt P07332): 98.2%
Serine/threonine-protein kinase pim-1 (PIM1, Homo sapiens, UniProt P11309): 72.4%

For quick reference, copied from above (study 3):
Nc1nc2[nH]cc(CCc3ccc(C(=O)N[C@@H](CCC(=O)O)C(=O)O)cc3)c2c(=O)[nH]1: 103%
CN1CCN2c3ncccc3Cc3ccccc3C2C1 (centres unmarked): 105%
COc1ccc(C(=O)c2ccccc2)c(O)c1: 73.7%
CCCCOc1ccc(C(=O)CCN2CCCCC2)cc1: 91.1%
CCCCCCC(=O)O[C@H]1CC[C@H]2[C@@H]3CCC4=CC(=O)CC[C@]4(C)[C@H]3CC[C@]12C: 126%
CC(O)(P(=O)(O)O)P(=O)(O)O: 118%
